Assay results collected from several papers.
A part holds a random share of what one study measured.

Sample 1
Target: Interferon regulatory factor 5, full length, phosphomimetic (IRF5, Homo sapiens, UniProt Q13568-2, residues 1-514, S451D/S453D/S456D/S462D)
Method: protein-binding microarray
Form: double-stranded DNA, one strand shown
Matrix: in vitro
Concentration: 940 nM top
Setting: 60-bp whole probe
With: salmon DNA 0.4 mg/ml
Reference: random background probes
Direction: higher = stronger binding
Constant ends, left off below: GCCTAGCAC … GTCTTGATTCGCTTGACGCTGCTG
Sequence | fitted relative affinity [z-score]
TTAGATCTCAGACTGGGTTAGTGCTAG | -0.267
TCATGTATGGGCATTTTTACTGTGCTA | -0.245
TCAATCATTGTTTTCAGACTGTGCTAG | 0.193
TCATCTGTCAGTTTTGAACTGTGCTAG | 0.0284
GACGAAGTGAGTTTCGAGACGTGCTAG | 3.52

Sample 2
Target: Histone acetyltransferase KAT6A, both winged helices, GST fusion (KAT6A, Homo sapiens, UniProt Q92794, residues 1-181)
Method: protein binding microarray
Form: double-stranded DNA, one strand shown
Matrix: in vitro
Concentration: not given
Setting: 8-mer, flanks averaged, mean of 2 arrays, mostly near background
Reference: not given
Direction: higher = stronger binding
Construct (chain): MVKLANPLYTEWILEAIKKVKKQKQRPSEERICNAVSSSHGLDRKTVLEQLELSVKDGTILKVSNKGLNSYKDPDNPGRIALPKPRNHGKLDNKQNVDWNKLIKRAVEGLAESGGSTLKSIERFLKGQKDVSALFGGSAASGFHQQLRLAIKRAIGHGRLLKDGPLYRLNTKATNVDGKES
Sequence | E-score
GCAGACGA | -0.0127
ACAAAACT | -0.263
CCCACGGC | 0.229
CCCCGGCG | 0.254
AAATTGCC | 0.0227

Sample 3
Target: Max dimerization protein 1, bHLH-zipper, MAX partner unstated (MXD1, Homo sapiens, UniProt Q05195, residues 56-136)
Method: protein-binding microarray
Form: double-stranded DNA, one strand shown
Matrix: in vitro
Concentration: not given
Setting: k-mer, scored over probes, only values ≥0.25
Direction: higher = stronger binding
Target sequence (chain): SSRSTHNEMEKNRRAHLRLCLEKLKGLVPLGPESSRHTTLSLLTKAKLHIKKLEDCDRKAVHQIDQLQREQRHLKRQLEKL
Sequence | E-score
AACACGCC | 0.366
CAAGCACG | 0.324
ACAGCGTG | 0.36
AATGTGGA | 0.253

Other studies, line by line
Molecule | target | test | system | setting | how to read | quantity | result
PhoQ, residues 284 288 289 292 302 303 TVTVVA | PhoP, residues 12 14 15 18 19 AWHSL (Escherichia coli, UniProt P23836) | Sort-seq, refers to: YFP reporter | E. coli | PhoQ-PhoP variant library, with: 10 µM Mg2+ | reference: high Mg2+ state, higher = stronger signaling | fold induction | 1.65

For quick reference, copied from above (sample 2):
Sequence | E-score
CCCACGGC | 0.229
